Measurements collected from several papers.
Every numbered part comes from another study and shows a few of its results, in no order. Values joined by “and” are separate records of one study, mostly repeats; a detail may differ.
UniProt P28482, sequence (whole entry, looked up): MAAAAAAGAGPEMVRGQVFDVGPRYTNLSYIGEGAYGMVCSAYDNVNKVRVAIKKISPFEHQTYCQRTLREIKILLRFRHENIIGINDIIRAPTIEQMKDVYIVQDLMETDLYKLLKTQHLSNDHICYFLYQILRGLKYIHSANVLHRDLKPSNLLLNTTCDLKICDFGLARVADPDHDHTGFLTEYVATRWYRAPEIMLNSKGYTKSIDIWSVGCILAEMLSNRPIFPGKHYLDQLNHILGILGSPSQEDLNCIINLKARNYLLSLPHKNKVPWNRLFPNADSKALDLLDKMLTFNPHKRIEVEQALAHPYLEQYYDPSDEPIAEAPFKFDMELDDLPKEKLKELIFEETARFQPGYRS
UniProt P18089, sequence (whole entry, looked up): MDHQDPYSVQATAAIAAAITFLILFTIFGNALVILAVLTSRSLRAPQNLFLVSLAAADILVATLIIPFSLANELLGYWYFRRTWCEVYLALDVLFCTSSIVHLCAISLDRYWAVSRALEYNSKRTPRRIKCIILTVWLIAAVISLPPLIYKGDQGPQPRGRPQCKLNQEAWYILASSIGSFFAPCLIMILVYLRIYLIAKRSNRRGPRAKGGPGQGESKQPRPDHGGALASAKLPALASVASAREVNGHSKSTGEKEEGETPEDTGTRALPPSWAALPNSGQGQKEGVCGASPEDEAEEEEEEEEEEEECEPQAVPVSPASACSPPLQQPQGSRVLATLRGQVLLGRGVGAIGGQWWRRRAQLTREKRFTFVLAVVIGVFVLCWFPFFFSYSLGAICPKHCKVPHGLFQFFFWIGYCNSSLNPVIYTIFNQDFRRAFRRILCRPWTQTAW
UniProt P35348, sequence (whole entry, looked up): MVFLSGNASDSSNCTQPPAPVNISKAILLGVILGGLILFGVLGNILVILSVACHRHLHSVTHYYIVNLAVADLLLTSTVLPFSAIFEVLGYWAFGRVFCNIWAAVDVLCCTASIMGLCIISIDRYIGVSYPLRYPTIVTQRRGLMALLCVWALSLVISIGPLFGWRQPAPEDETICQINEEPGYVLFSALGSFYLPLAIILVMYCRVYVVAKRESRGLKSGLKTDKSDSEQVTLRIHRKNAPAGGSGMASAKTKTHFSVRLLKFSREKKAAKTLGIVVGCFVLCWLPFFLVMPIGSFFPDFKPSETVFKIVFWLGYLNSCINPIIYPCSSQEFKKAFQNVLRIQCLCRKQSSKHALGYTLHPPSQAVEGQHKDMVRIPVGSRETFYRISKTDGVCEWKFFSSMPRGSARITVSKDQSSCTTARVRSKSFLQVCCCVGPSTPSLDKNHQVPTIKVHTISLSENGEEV
UniProt Q9H3N8, sequence (whole entry, looked up): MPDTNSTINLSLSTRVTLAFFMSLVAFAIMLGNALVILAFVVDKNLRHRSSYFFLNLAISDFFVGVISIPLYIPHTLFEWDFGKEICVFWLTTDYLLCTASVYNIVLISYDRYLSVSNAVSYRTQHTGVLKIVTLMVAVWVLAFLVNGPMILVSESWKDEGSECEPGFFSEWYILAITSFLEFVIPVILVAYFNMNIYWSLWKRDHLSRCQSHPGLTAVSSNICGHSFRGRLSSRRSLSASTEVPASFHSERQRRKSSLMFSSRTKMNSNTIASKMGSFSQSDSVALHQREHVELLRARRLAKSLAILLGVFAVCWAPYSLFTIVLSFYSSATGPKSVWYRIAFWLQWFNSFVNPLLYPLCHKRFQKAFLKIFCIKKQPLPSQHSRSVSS

Set 1
Compound: CC(=O)N[C@@H](Cc1c[nH]c2ccccc12)C(=O)N[C@@H](CCC(=O)C=[N+]=[N-])C(=O)OC(C)C
Technique: UPLC-MS/MS metabolomics
Species: C57BL/6 CES1-/- mice, EL4 tumour
Sample: EL4 tumour
Route: subcutaneous
Dose: 0.3 mg/kg/day DON equivalent
Time: 5 days
Notes: normalised to tissue mass
refers to | peak intensity
N6,N6,N6-trimethyllysine | 2.4e+08 a.u. and 2.15e+08 a.u. and 2.03e+08 a.u. and 1.69e+08 a.u. and 1.85e+08 a.u. and 1.66e+08 a.u.
N6,N6-dimethyllysine | 8.38e+07 a.u. and 1.16e+08 a.u. and 8.74e+07 a.u. and 1.1e+08 a.u. and 9.5e+07 a.u. and 8.3e+07 a.u.
S-adenosylhomocysteine | 55500 a.u. and 36800 a.u. and 34500 a.u. and 57800 a.u. and 61700 a.u. and 47300 a.u.
UMP | 8.81e+06 a.u. and 3.1e+06 a.u. and 9.49e+06 a.u. and 1.08e+07 a.u. and 3.04e+07 a.u. and 2.81e+07 a.u.
TMP | 66400 a.u. and 57100 a.u. and 77100 a.u. and 65600 a.u. and 64500 a.u. and 38600 a.u.

Set 2
Target: Tyrosine-protein kinase JAK2 (JAK2, Homo sapiens, UniProt O60674)
UniProt O60674, sequence (whole entry, looked up): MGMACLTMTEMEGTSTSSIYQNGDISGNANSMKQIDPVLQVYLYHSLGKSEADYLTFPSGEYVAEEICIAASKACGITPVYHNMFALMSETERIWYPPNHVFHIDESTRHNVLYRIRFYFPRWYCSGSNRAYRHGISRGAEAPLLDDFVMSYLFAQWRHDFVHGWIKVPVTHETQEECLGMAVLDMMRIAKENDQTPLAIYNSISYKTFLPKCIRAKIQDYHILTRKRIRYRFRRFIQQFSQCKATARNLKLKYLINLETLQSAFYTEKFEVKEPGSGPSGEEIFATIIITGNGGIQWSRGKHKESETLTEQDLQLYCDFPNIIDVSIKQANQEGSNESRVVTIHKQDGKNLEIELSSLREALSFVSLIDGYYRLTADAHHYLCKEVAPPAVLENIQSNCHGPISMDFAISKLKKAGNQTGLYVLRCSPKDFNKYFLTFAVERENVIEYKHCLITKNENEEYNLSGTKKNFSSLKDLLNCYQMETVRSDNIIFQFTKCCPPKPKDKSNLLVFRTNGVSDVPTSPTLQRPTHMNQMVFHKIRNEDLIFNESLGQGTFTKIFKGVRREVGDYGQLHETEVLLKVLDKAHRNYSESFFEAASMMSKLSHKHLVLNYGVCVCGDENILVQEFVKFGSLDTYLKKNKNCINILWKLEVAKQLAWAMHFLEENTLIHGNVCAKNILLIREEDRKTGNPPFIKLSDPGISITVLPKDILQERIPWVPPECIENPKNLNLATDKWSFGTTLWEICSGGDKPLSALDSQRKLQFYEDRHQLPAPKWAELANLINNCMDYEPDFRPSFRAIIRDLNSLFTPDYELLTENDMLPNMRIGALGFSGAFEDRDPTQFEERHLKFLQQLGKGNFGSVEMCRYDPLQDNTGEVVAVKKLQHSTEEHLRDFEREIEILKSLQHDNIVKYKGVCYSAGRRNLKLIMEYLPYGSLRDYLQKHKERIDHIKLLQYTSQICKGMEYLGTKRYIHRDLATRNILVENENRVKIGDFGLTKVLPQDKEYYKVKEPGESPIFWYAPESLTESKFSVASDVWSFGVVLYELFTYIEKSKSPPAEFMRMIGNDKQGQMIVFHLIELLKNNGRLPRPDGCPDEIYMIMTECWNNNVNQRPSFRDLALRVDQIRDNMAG
Observed: enzyme activity
Mode: inhibitor
Concentration: 0.5 µM
Reference: control
Structure (SMILES) | remaining activity
CCCCc1c(-c2ccc(OC)cc2)[nH]c2nccnc12 | 77.9%
COc1ccc(COc2ccc(Cc3cnc(N)nc3N)cc2OC)cc1 | 89.2%
O=C1NC(=O)c2c1c1c3ccccc3[nH]c1c1[nH]c3cc(Br)ccc3c21 | 95.8%
O=C1Nc2ccc(Br)cc2/C1=C/c1cc2c([nH]1)CCCC2 | 95.2%
N#Cc1cnc2cnc(NCc3cccnc3)cc2c1Nc1ccc(F)c(Cl)c1 | 99%
O=C1Cc2c([nH]c3ccc(Br)cc23)-c2ccccc2N1 | 102%
O=c1cc(N2CCOCC2)oc2c(-c3ccccc3)cccc12 | 95.1%
O=Nc1c(-c2c(O)[nH]c3cc(Br)ccc23)[nH]c2ccccc12 | 93.8%

Set 3
Technique: exponential regression of PRP log k'
Sample: 1,9-decadiene/PBS
pH: 7.4
Structure (SMILES) | logD (1,9-decadiene/water)
Cc1ncsc1-c1ccc(CNC(=O)[C@@H]2C[C@@H](O)CN2C(=O)[C@@H](NC(=O)CCCCCOC(=O)CC23C[C@H]4C[C@@H](C2)C[C@@H](C3)C4)C(C)(C)C)cc1 | 1.97
COCC(=O)OCCCCCC(=O)N[C@H](C(=O)N1C[C@H](O)C[C@H]1C(=O)NCc1ccc(-c2scnc2C)cc1)C(C)(C)C | -3.31
CCCN1CC(=O)N[C@@H](CC2CCCCC2)C(=O)N(C)[C@@H](C)C(=O)N[C@@H](CC(C)C)C(=O)N(C)[C@H](C(=O)OCC)CSCC(=O)N[C@@H](CC(C)C)C(=O)N(C)[C@@H](C)C(=O)N[C@@H](CC(C)C)C(=O)N2CCC[C@@H]2C1=O | 3.2
CCCC(=O)NCCCCCC(=O)N[C@H](C(=O)N1C[C@H](O)C[C@H]1C(=O)NCc1ccc(-c2scnc2C)cc1)C(C)(C)C | -4.26
Cc1ncsc1-c1ccc(CNC(=O)[C@@H]2C[C@@H](O)CN2C(=O)[C@@H](NC(=O)CCCCCOC(=O)CC(c2ccccc2)c2ccccc2)C(C)(C)C)cc1 | 1.32
Cc1ncsc1-c1ccc(CNC(=O)[C@@H]2C[C@@H](O)CN2C(=O)[C@@H](NC(=O)CCCCCNC(=O)CC23C[C@H]4C[C@@H](C2)C[C@@H](C3)C4)C(C)(C)C)cc1 | -0.339

Other studies, line by line
SMILES | target | observed | technique | concentration | endpoint | result
CC(C)(C)OC(=O)N1CCCC1CNC1CCC(c2cc(F)ccc2F)(S(=O)(=O)c2ccc(Cl)cc2)CC1 (centres unmarked) | Alpha-1A adrenergic receptor (ADRA1A, Homo sapiens, UniProt P35348) | cell-free assay | – | 10 µM | inhibition | 12.4%
O=C(c1ccc(F)cc1)N1CC(COc2ccc(Br)cc2)(C(=O)O)C1 | Histamine H4 receptor (HRH4, Homo sapiens, UniProt Q9H3N8) | binding | radioligand binding | – | Ki | > 10000 nM
NS(=O)(=O)c1cc(NC(=O)C2(c3ccccc3Cl)CC2)ccc1Oc1cccc(Cl)c1 | Alpha-2B adrenergic receptor (ADRA2B, Homo sapiens, UniProt P18089) | cell-free assay | – | 10 µM | inhibition | 43.4%
C[C@@H](NC(=O)Nc1cc2[nH]ncc2c(CO)n1)c1ccccc1 | Mitogen-activated protein kinase 1 (MAPK1, Homo sapiens, UniProt P28482) | target engagement in cells | BRET | – | EC50 | 95 nM

A few entries again (set 3):
Structure (SMILES) | logD (1,9-decadiene/water)
COCC(=O)OCCCCCC(=O)N[C@H](C(=O)N1C[C@H](O)C[C@H]1C(=O)NCc1ccc(-c2scnc2C)cc1)C(C)(C)C | -3.31
CCCN1CC(=O)N[C@@H](CC2CCCCC2)C(=O)N(C)[C@@H](C)C(=O)N[C@@H](CC(C)C)C(=O)N(C)[C@H](C(=O)OCC)CSCC(=O)N[C@@H](CC(C)C)C(=O)N(C)[C@@H](C)C(=O)N[C@@H](CC(C)C)C(=O)N2CCC[C@@H]2C1=O | 3.2
